# Published values of several laboratories.
# Parts stem from different laboratories: compare values within a part only. Substitutions count along the parent as printed.

# Set 1
# Target: Hepatocyte nuclear factor 3-alpha (Foxa1, Mus musculus, UniProt P35582, residues 1-468, full length assumed)
# Technique: EMSA with sequencing
# Molecule type: double-stranded DNA, one strand shown
# Sample: in vitro
# Tested at: 10 and 20 nM
# Setting: whole designed probe, mean of two concentrations, ends assumed
# Relative to: negative control set to 0
# Reading: higher = stronger binding
# All sequences stand within: GTGAGCGGTGCCCATTGATGGGGAAC … TTTCACTGGGATCGTGGGGAC
# Residues (chain): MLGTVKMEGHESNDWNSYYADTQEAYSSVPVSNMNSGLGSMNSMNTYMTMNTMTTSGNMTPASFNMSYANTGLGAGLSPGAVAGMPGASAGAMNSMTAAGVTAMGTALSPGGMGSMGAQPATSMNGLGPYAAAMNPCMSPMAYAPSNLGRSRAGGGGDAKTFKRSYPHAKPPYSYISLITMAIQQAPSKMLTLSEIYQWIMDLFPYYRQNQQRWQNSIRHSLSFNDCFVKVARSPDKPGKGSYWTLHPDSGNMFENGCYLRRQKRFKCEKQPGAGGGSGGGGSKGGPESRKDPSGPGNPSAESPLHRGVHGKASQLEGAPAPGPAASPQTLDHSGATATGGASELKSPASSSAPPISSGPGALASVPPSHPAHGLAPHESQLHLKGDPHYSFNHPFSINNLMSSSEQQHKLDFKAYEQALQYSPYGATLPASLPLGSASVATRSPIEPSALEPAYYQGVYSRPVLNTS
Oligonucleotide,normalised bound fraction [ratio]
TAAGTAATGCATTTCTGTGATTCAACAAAGATCTATCTCACAGAGATATCTCATTCTGCTCCCTTCCCCCAGTCACATTCTTCTTTGTCTTATGTAATCTTGTCTTGTTTTTTTTTGTTTGCTTCTAGATTATCCTTCAAGTGGGTTTTTTGTTTTTTGTTCTGTCACTATTATATATTTCTCTTCACTCCTG,0.136
ATCTTCCCCCTCTTCCTTGCCCCACCAGCTCACCTTCCCGGGTTATTTGCAGATAGGAAAATAAATAAAGCCGGCATTCGTTAACCCTCTTCTGGCGCAAACTGCTGTTTGCTCTGGATGAATCATGGTCCTTTGGCGACGCCAGGCTCCGGGAGAGCAAAGCACCGTCTGGAGGCCATGATCCGGGGTGGCC,0.333
GTGTGTGCGCGCGCGTGTGTGTGTGTTTTCTTAAGCCGGGCTATTCAAACCCTGCTGCCAATGATTCATAATTCTCCGGTAAAGGGGCATAATGCAAATAAACGGATTGCAAACGGCGCGGTTCGCGCACTTTGCAGCCGGCCCGGTGGAGCAGCCAGTGCCGGATTTCTCCCTTTTTTTGCAGATCTGCAGA,0.419
CTCATCTTAGATAGTAGAATCGCAGCATTTTTTTCTGCCGGTCTGAACTCAGGCACGCTATTTGTTCATCTACTTACTCAAACATGTATTGTGTGTTTACTCAGTGGCAGGCTCAGTGCTAGGTGCTGGGGATGGAGCAGTGCAGAGAGACAAAAACTCTGCTCTCATAAAGCTCACAATCTACAACCTGAGA,0.481
AAGCCCCACGCACTGTCCGTGGGCGTCTCTGGCCTCCCGGACTTGTATCACAGACCCCAGCCCAAGAGACACAGGCAGAGGAAATGCTCAGTGTAATCTTGGGAATGGGAGGGTGGCCCTGCCCTGTGGCCCGGCCTGCCCTGACCTGCAACCATGCACAGTAGCCAGGTGCCACGTAGGGCCCAATGTCTGC,-0.0788
TTTCCACCTAAAATATTGTCATTCAGAAGGGAATCACTTTAATATCCACAAAGGAAAATTAACATGTTATAATTTCAGCCACAATAATATCTATGTAAACATGCATTTAATCCTACTAATTTACAATTAATTCAATTTTTCTTTTATATTCTGCATTCCACATAAAGCGATAACAGGAAAACATAAAATTCCA,0.272
AGGTGAATTGGCTGCTTCCATCCTGGCTTGGAACTTCAGACATAGAAGCCTTGGGACTTTCTCAGGACTTTCTCCTGACTCATGCCAGATTCAGCAAACAAGCATCTCTGTGGATCACGTGACCTTAGCCAGGGATGTTGGTGAAACTGTGTGTTGGTCTAGGTACCTAGCCCATGCTAGGTGCTCATCGAAT,0.0404
CATACAAGAAAATAACTGTAGGCACAACTGGCACAATTATATTAGTAATAATGATGGGATAAAAATATAAAGATGCATATGTAAATTGATCTGTGTAATCTTGAATATAGTATTTGCCAAGTGACATAGACAAATATATTAAATAATATACTTTTGAATATTGGTATCAGAATCATAAAATCTTTAAAAATCA,0.32

# Set 2
# Target: CCNF, cyclin fold, Cln2 fusion (human)
# Technique: yeast growth competition, sequencing
# Sample: yeast
# Setting: strong parent motif
# Relative to: not given
# Reading: higher = stronger binding
# Parent: viral docking peptide; TSVRRALFTGGSD; partner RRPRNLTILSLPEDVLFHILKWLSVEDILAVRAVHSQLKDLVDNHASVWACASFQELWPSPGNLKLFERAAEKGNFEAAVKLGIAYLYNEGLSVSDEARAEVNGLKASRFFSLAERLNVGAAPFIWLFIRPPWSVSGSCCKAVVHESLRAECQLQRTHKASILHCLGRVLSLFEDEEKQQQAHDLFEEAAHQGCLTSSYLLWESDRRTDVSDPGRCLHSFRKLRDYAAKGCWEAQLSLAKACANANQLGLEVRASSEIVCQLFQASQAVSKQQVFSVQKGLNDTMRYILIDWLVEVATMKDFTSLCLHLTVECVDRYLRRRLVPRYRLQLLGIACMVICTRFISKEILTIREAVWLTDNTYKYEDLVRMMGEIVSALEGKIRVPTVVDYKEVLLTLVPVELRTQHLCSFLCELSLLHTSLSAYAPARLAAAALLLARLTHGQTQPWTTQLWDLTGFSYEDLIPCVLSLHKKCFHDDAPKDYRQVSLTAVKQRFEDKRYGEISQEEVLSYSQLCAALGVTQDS
Variant,normalised enrichment score
A6M,7.46
G10Y,8.48
G10V,7.79
G11Q,8.26
F8P,0.411
G11N,8.2
S12K,7.91
R5A,0.742
L7D,-0.226
T9Q,7.73
V3G,3.32
A6S,7.77
V3T,7.51
F8L,3.06
R5A L7A,0.114
V3S,3.77
A6V,7.74

# Set 3
# Target: Interferon regulatory factor 5, full length, phosphomimetic (IRF5, Homo sapiens, UniProt Q13568-2, residues 1-514, S451D/S453D/S456D/S462D)
# Technique: protein-binding microarray
# Molecule type: double-stranded DNA, one strand shown
# Sample: in vitro
# Tested at: 940 nM top
# Setting: 60-bp whole probe
# With: salmon DNA 0.4 mg/ml
# Relative to: random background probes
# Reading: higher = stronger binding
# All sequences stand within: GCCTAGCAC … GTCTTGATTCGCTTGACGCTGCTG
Oligonucleotide,fitted relative affinity [z-score]
GACGGTATCGACACTGGCGACGTGCTA,3.94
GACGGTTGCGGTTTCGGGACGTGCTAG,3.83
GACGGTTTCGGACTGGAGACGTGCTAG,5.66
TTAGGTTCCCTTCTCCTTTAGTGCTAG,0.761
GACGATTTCGGTATCGGGACGTGCTAG,3.6
TTCGGACTGGGTATCGGTTAGTGCTAG,3.93
GACGTACTGGGGACTGGAGACGTGCTA,-0.198
TTAGAACTAAGTATCGATTAGTGCTAG,3.93

# Set 4
# Variant: F103Y
# Target: ABI1, truncated, D143A, DHFR fusion (Arabidopsis thaliana)
# Technique: DHFR PCA, deep sequencing
# Sample: yeast
# Setting: methotrexate growth selection, single substitutions
# Relative to: wild-type fitted maximum
# Reading: higher = stronger binding
# Parent: PYL1, truncated, DHFR fusion (Arabidopsis thaliana); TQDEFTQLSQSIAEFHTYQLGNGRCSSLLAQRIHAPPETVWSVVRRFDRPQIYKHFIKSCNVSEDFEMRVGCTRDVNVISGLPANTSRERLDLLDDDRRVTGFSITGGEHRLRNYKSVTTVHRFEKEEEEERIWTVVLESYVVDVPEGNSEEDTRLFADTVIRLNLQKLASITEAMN; partner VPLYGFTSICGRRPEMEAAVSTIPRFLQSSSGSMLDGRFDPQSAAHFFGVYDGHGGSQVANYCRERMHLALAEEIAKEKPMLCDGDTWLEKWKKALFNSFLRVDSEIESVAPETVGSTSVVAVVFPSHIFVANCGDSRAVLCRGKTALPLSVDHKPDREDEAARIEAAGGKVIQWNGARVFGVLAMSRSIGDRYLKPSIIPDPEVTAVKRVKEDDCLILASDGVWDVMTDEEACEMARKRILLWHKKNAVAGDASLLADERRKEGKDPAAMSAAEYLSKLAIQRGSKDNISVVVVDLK
setting,relative binding score
with: (+)-ABA 58 µM,84.1%
with: (+)-ABA 1.4 µM,51.5%
with: (+)-ABA 0.39 µM,56%
with: (+)-ABA 200 µM,100%
with: (+)-ABA 0.11 µM,63.9%
with: (+)-ABA 0.0091 µM,65.2%
